Measurements collected from several papers.
Every numbered part comes from another study and shows a few of its results, in no order. “And” joins repeats or separate records; there may be more than shown. Substitutions count along the parent as printed.

Series 1
Target: Interferon regulatory factor 3, full length, phosphomimetic (IRF3, Homo sapiens, UniProt Q14653, residues 1-427, S386D/S396D/S398D/S402D/T404D/S405D)
Sequence of UniProt Q14653 (whole entry, unmodified, looked up): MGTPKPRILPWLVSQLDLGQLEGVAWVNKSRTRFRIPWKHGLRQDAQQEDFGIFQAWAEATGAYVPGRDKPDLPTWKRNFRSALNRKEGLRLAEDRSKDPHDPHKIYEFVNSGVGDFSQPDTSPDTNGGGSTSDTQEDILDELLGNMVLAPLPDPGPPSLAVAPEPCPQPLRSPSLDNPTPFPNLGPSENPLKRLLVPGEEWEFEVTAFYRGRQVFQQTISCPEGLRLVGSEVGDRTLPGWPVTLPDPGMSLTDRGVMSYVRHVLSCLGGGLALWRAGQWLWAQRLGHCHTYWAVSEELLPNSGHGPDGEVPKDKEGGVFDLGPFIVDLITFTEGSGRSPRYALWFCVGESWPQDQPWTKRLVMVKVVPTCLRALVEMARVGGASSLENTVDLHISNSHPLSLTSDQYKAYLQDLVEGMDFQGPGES
Method: protein-binding microarray
Molecule type: double-stranded DNA, one strand shown
Medium: in vitro
Concentration: 2540 nM top
Setting: 60-bp whole probe
With: salmon DNA 0.4 mg/ml
Reference: random background probes
Direction: higher = stronger binding
All sequences stand within: GCCTAGCAC … GTCTTGATTCGCTTGACGCTGCTG
Strand | fitted relative affinity
GTAGATTTCGGGACTGGATTAGTGCTA | 1.55 z-score
TTAGGACTACTTATCCTTTAGTGCTAG | 0.373 z-score
GACGATCTCGGTCTCGGGACGTGCTAG | 0.555 z-score
TTAGAACTGGGGCCTGGATTAGTGCTA | -1.05 z-score
GACCTTTTTAAGATCTGTGCGTGCTAG | 2.35 z-score

Series 2
Target: Ras GTPase-activating protein-binding protein 1, full length (G3BP1, Homo sapiens, UniProt Q13283)
Sequence of UniProt Q13283 (whole entry, looked up): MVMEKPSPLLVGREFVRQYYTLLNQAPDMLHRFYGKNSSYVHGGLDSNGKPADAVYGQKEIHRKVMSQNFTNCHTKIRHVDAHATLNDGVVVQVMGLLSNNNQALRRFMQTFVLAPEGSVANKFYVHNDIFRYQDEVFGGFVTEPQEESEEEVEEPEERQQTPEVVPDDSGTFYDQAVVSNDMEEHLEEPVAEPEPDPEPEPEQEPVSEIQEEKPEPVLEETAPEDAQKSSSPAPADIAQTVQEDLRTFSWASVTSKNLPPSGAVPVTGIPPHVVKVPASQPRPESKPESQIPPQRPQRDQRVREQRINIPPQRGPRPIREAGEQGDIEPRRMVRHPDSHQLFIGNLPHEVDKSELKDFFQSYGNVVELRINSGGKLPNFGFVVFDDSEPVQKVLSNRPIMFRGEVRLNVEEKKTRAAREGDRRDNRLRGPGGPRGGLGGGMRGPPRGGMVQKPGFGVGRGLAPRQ
Method: RNA Bind-n-Seq
Molecule type: RNA
Medium: in vitro
Concentration: 200 nM
Setting: whole 134-nt RNA, ends assumed
With: 150 mM KCl
Reference: input library
Direction: higher = stronger binding
Strand | log2 enrichment
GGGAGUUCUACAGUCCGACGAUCCCUGUGCUACACAUCGUAUGUACCGAAUCGGGGUUUUUUUGGGGUUUUUUUGGGGUGGGGAAAGUAUUAUGUUACGCCGUUCGGAUCUGCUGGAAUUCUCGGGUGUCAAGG | 0.164
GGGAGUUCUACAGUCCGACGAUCUGUGCUACACAUCGUAUGUACCGAAUCGGGGUUUUUUUGGGUUUUUUUGGGGUUUUUUUGGGAAAGUAUUAUGUUACGCCGUUCGGAUCUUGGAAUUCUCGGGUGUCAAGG | -0.759
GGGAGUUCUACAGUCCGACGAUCUCCUGUGCUACACAUCGUAUGUACCGAAUCGGGGCCCCCCGGGCCCCCCGGCCCCCCGGAAAGUAUUAUGUUACGCCGUUCGGAUCUGCAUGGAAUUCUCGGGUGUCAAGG | -0.0656
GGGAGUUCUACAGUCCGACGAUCUCAAGUCCUGUGCUACACAUCGUAUGUACCGAAUCGGGGAAGGGGAAGGAAGGGAAAGUAUUAUGUUACGCCGUUCGGAUCUGCACUUCCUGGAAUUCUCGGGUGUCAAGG | 0.0852
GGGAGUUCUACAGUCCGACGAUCUAACUUUAGAGGAGGAUCUGAUGGAUAUGGCAGUGGACGUGGAUUUGGGGAUGGCUAUAAUGGGUAUGGAGGACGACCUGGAGGUGGCAAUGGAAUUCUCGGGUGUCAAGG | 0.345
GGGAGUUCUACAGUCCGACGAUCUGGGAGGUGGAUUUUGUUUAUUUUUUUAGCUCAUUUCCAGGGGUGGGAAUUUUUUCUUAAUAUGUGUCAUGAAUAAAGUUGUUUUUGAAAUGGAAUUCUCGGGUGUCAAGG | 0.18
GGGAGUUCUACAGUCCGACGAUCGUCCUGUGCUACACAUCGUAUGUACCGAAUCGGCCCCCGGCCCCCGGGGCCCCCGGGGAAAGUAUUAUGUUACGCCGUUCGGAUCUGCACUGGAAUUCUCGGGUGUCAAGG | -0.615

Series 3
Target: CCND2, cyclin fold, Cln2 fusion (human)
Method: yeast growth competition, sequencing
Medium: yeast
Setting: strong parent motif
Reference: not given
Direction: higher = stronger binding
Starting sequence: INSM1 docking peptide (human); PKAIRKLHFEDEV; partner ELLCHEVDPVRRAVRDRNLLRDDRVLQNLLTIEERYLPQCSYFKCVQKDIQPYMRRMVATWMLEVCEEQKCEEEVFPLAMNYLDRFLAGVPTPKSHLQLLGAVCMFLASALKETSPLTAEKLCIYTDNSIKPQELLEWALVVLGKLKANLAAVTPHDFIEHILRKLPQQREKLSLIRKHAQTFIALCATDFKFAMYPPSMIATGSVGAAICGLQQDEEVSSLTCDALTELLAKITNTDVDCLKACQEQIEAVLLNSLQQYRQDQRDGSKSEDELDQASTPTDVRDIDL
Substitution | normalised enrichment score
PKAIRKPHFEDEV [L7P] | 0.107
PDAIRKLHFEDEV [K2D] | 0.77
PKAIRKLHKEDEV [F9K] | -0.406
PMAIRKLHFEDEV [K2M] | 1.97
PKAHRKLHFEDEV [I4H] | 0.0664
PKTIRKLHFEDEV [A3T] | 1.08

Mixed results
Molecule | target | assay | test system | setting | how to read | quantity | result
PhoQ, residues 284 288 289 292 302 303 TASMAF | PhoP, residues 12 14 15 18 19 LWHCS (Escherichia coli, UniProt P23836) | Sort-seq, item: YFP reporter | E. coli | PhoQ-PhoP variant library, with: 10 µM Mg2+ | reference: high Mg2+ state, higher = stronger signaling | fold induction | 7.03 and 15.1

A few entries again (series 3):
Substitution | normalised enrichment score
PDAIRKLHFEDEV [K2D] | 0.77
